Results of several laboratories.
Every numbered part comes from another study and shows a few of its results, in no order. Changes are numbered by the printed parent chain.

Set 1
Target: Prothrombin, mature alpha-thrombin (F2, Homo sapiens, UniProt P00734)
Method: aptamer microarray, sandwich
Molecule type: DNA with 2'F-ANA
Medium: in vitro
Tested at: 200 nM
Notes: whole 15-mer aptamer, many near background
With: Cy3 exosite-II aptamer, 400 nM
Direction: higher = stronger binding
Strand: GGTTGGTGTGGTTGG
Modification	mean fluorescence intensity [a.u.]
2'F-ANA at 3 4 7 8 11 12	1040
2'F-ANA at 1 3 4 7 8 9 10 11 12 14 15	54.8
2'F-ANA at 1 4 7 8 9 10 12 13 15	111
2'F-ANA at 1 6 8 10	53.8
2'F-ANA at 1 3 4 7 9 11 14 15	62.1
2'F-ANA at 3 5 10 12	67.6
2'F-ANA at 2 3 9 11 12 13 14 15	369
2'F-ANA at 1 2 6 9 13 14 15	53.1
2'F-ANA at 1 4 5 8 10 11 12 15	67.7
2'F-ANA at 2 3 7 9 11 13 15	604
2'F-ANA at 1 6 7 9 11 15	121
2'F-ANA at 2 3 4 8 10 11 12 14 15	171
2'F-ANA at 1 2 5 7 8 9 10 11 12 14	46.9
2'F-ANA at 1 2 5 6 7 10 13 14 15	49.4
2'F-ANA at 1 2 3 5 10 11 13 14 15	50.4
2'F-ANA at 2 4 5 6 9 10 13 15	192
2'F-ANA at 1 3 5 6 7 9 10 12 13 14 15	46.3
2'F-ANA at 1 3 8 9 14	96.5
2'F-ANA at 2 4 5 6 9 10	58.5
2'F-ANA at 2 5 6 11 13 14	44.8
2'F-ANA at 1 2 5 13	47.3

Set 2
Target: Histone acetyltransferase KAT6A, both winged helices, GST fusion (KAT6A, Homo sapiens, UniProt Q92794, residues 1-181)
Method: protein binding microarray
Molecule type: double-stranded DNA, one strand shown
Medium: in vitro
Tested at: not given
Notes: 8-mer, flanks averaged, mean of 2 arrays, mostly near background
Relative to: not given
Direction: higher = stronger binding
Construct (chain): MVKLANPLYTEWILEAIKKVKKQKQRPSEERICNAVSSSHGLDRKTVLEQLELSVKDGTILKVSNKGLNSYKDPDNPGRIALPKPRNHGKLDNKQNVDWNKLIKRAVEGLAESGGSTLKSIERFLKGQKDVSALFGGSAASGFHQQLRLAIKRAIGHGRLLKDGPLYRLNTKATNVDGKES
Strand	E-score
ATGCCCTG	-0.178
GGAGCGCA	0.264
CACTACCA	-0.0584
CGCAAGAA	0.213
CCCTCGGC	0.149
ACACTACC	-0.085
CAGGACGC	0.111
AGGCACCA	-0.105
ATCCCTAG	-0.167
AAAAGCAG	-0.159
GATAGTCA	0.00871
AGCACTCG	-0.0431
AACAGACA	-0.0172
ATATTGAA	-0.153
CCACTGCA	-0.0802
GTACAAAC	-0.0186
ACGGCAAC	0.307
ACTATATC	-0.077
CGTTCTAC	0.0434
AAACTTCG	-0.0423
ACTAATCC	0.0424
AAGACCTC	-0.053
AATTTCTC	-0.00613
AGCTGCCC	0.00873
TTAGAGAA	-0.175

Set 3
Target: RNA binding protein fox-1 homolog 2, RRM domain, GST-SBP tag (RBFOX2, Homo sapiens, UniProt O43251-10, residues 100-194)
Method: RNA Bind-n-Seq
Molecule type: RNA
Medium: in vitro
Tested at: 365 nM
Notes: natural RNA segment, single round, ends assumed
Relative to: no-protein control
Direction: higher = stronger binding
Constant ends, left off below: GGGAGUUCUACAGUCCGACGAUC … UGGAAUUCUCGGGUGCCAA
Target sequence (chain): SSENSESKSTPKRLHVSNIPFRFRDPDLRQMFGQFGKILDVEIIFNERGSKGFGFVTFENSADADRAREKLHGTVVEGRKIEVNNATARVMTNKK
Strand	RBNS enrichment (R)
UUUAGGAAAUUGCCAGACUGUUUUCCAAAGAAGCUGCACCAUUUUACAUUUGCACCAGCAAUGUAGGAGGGUUCUGAUAUCUCCACGUCCUCACCAACACUUGUGAUUAU	0.187
AAAUAUCUUUUGGUUCCAAAUAGAAAGACAAUUCUUUAUUGUCUGACUGUAAUACAGCCUUCAUUGUGCUAUUCAUCCCAUUGUUUGCUUCACUCUGUCUGUGUAAAAGC	0.67
CUCGUCACAAAUGCCAAACUGACUGCUCUUUCCCAGUGCCCAGUGCUGUCUUUUGCUUCUGUUUGAUUUGGUCUGCGUAUCUUUUAAUGUGUCUGUUUUGUUUUGUUUGU	2.21
CAACCAUGCACACCACAGAGAGCCCUUAAGCCCUCCCCUCCCCAUUUCCCCUAAGUCAAAGCCAUGACUAGGAUGUACCAGCCACCUGCCUCUGAUGUCGGCGAAUCCUG	0.67
GUAGCUUUGCCAGAUAUGUACUUAGAGAUAUCAACCGUGUUAAUAAGCCCAUUAAUGUGUAACAACAAGUUUAACAGUUAAGAGAGAGUAGCUGUUCACCUUGAAGACAG	0.493
CUCAUCACUGAGGAUCAUGAAACACAGUAGGGGUGUGUGGAGCCUUGGGACGUGAGCAGUCUCCAGAAAGAGGCCUGAGAGAGAGCAUGAACACUUAUCUUUGUGAGUGA	21.8
UUGUCUGAUGCUCAUGCCCCACUCAGAGAAAAGACACCAGCAAAUUAAGGAUUUUCUGGGUUCCUGUGACCCUCAGGUUAUUUUAAAGCAAUUGGAAGAGCAUAUGAACA	0.332
CAAAUGCAAUGGCUCAGAACAAUUAAGCACUGCCUUUCGUCUUUCUUUGUAACUCACUUGGUAAAAGCAAAUGUCUUGUCUCCUUCAGUGGUUCUUUGAAGCUUAGUGAG	0.518
UAGAAAGACACUUAUAUGACACUCAGGUGUCUGCUAUUUAUCUUGAUUUCUAAAUGGUUCUGGAUUCCAUGUUUUCUCUAUUCGUUUAGAAGAAGUUGGAGGAUGGUGCU	0.274
GUUUACGUCAUUUACACUGCUGCUUUUCUCAUAUUCUGCUUUUAAUUACUUGUAGUAAAUCAUUUGUUUGGGCUUCAAGCACUGUCUUCCAUCUGCAUCUUCCAGAUUUA	0.826
GAUAAUUGUCUAGUGACCCUCUCAUCACUGUAACCAUCGCGCCUGGCCUAGAUGUCGUGUUUUGGAUGCUGUGUUUUCAAUAAAUGCCUCUGGGGCCCUGCUUUUACCCG	0.45
AAAGAUUGUAGUCAGCAUUUCAUUUGAGAGAAUACAAGAAAUGAAUAAAUCUAUUAGGGCCAGGGCCUGGAGACUGGUUCUAAAACUCACAAAUUGAGGAGUGAAAUAGG	1.72

Set 4
Target: Interferon regulatory factor 7, full length, phosphomimetic (IRF7, Homo sapiens, UniProt Q92985, residues 1-503, S471D/S472D/S475D/S476D/S477D/S483D/S484D/S487D)
Method: protein-binding microarray
Molecule type: double-stranded DNA, one strand shown
Medium: in vitro
Tested at: 2200 nM top
Notes: 60-bp whole probe
With: salmon DNA 0.4 mg/ml
Relative to: random background probes
Direction: higher = stronger binding
Constant ends, left off below: GCCTAGCAC … GTCTTGATTCGCTTGACGCTGCTG
Target sequence (chain): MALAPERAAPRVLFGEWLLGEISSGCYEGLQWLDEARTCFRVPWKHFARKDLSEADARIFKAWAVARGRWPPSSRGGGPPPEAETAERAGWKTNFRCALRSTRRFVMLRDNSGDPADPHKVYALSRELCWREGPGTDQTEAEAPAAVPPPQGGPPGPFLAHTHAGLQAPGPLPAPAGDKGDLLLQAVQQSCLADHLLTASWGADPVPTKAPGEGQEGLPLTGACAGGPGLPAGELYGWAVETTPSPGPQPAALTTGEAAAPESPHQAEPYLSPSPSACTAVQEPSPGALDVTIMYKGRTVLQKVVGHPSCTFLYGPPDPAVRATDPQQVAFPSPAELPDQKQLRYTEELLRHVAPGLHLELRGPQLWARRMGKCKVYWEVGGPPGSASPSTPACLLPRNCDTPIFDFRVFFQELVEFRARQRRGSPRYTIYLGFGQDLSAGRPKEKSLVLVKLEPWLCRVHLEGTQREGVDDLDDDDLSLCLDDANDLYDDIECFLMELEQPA
Strand	fitted relative affinity
GTAAGCAAAAATGATTGGTTGTGCTAG	-0.546 z-score
GACGATATCAGTTTCGACACGTGCTAG	3.1 z-score
GACGATTTCGTGACTGGAGACGTGCTA	0.762 z-score
CTAGGTATCCTTTTCCTTTAGTGCTAG	1.85 z-score
TTTGGAGTCATTCTCAACCCGTGCTAG	0.24 z-score
GACGGTATCGGACCGGGGACGTGCTAG	-0.432 z-score
TTAGGACTGGCTTTCGGTTAGTGCTAG	3.88 z-score
TTAGAACTGGGGCTTCGATTAGTGCTA	-0.312 z-score
TTAGGCCTGCTTATCCTTTAGTGCTAG	0.367 z-score
GACGATTCCACTTTCGAGACGTGCTAG	5.86 z-score
GTTTATTTATTTTTACATTAGTGCTAG	1.42 z-score
TCATTTTTCTAATTTACACTGTGCTAG	2.21 z-score
GACGGGTTCCTTCTCCTGACGTGCTAG	0.927 z-score
TTAGATTTCGGGCCTGGATTAGTGCTA	0.557 z-score
TTAGGTCTCCTTATCCTTTGGTGCTAG	0.849 z-score
GACGGTATCCTTTTCCAGACGTGCTAG	1.27 z-score
GACGGACTGGGTCTTGGGACGTGCTAG	-0.796 z-score

Set 5
Target: CCNB1, cyclin fold, Cln2 fusion (human)
Method: yeast growth competition, sequencing
Medium: yeast
Notes: strong parent motif
Relative to: not given
Direction: higher = stronger binding
Starting sequence: E2F1 docking peptide (human); PPVKRRLDLETDH; partner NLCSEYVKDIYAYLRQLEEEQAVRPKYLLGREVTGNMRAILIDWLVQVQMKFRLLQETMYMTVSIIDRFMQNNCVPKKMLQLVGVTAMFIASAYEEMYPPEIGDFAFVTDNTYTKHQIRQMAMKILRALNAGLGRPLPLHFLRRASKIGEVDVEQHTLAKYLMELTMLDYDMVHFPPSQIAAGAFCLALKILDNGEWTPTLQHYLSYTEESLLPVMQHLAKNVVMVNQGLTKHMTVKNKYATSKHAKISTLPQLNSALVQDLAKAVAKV
Change	normalised enrichment score
PPVKRRLDLEADH [T11A]	1.29
PPVYRRLDLETDH [K4Y]	-0.199
PPVKYRLDLETDH [R5Y]	0.264
PPVKRRCDLETDH [L7C]	0.807
PSVKRRLDLETDH [P2S]	0.648
EPVKRRLDLETDH [P1E]	0.704
PPPKRRLDLETDH [V3P]	0.651
PPVKRRLDLNTDH [E10N]	1.31
PPFKRRLDLETDH [V3F]	0.268
CPVKRRLDLETDH [P1C]	0.64
PPVKRRLDLERDH [T11R]	0.784
MPVKRRLDLETDH [P1M]	1.78
PEVKRRLDLETDH [P2E]	1.03
PPVKRRQDLETDH [L7Q]	0.0527
PPVGRRLDLETDH [K4G]	0.232
PPVKRRADLETDH [L7A]	0.466
PPVKRRLDLHTDH [E10H]	1.68

A few entries again (set 4):
Strand	fitted relative affinity
GACGATATCAGTTTCGACACGTGCTAG	3.1 z-score
GACGATTTCGTGACTGGAGACGTGCTA	0.762 z-score
CTAGGTATCCTTTTCCTTTAGTGCTAG	1.85 z-score
TTTGGAGTCATTCTCAACCCGTGCTAG	0.24 z-score
GACGGTATCGGACCGGGGACGTGCTAG	-0.432 z-score
TTAGGACTGGCTTTCGGTTAGTGCTAG	3.88 z-score
TTAGAACTGGGGCTTCGATTAGTGCTA	-0.312 z-score
TTAGGCCTGCTTATCCTTTAGTGCTAG	0.367 z-score
GACGATTCCACTTTCGAGACGTGCTAG	5.86 z-score
GTTTATTTATTTTTACATTAGTGCTAG	1.42 z-score
TCATTTTTCTAATTTACACTGTGCTAG	2.21 z-score
